# Measured values collected from several papers.
# Every numbered part comes from another study and shows a few of its results, in no order. Changes are numbered by the printed parent chain.

# Study 1
# Target: human cyclin B2
# Observed: peptide binding
# Technique: yeast competitive growth sequencing
# Molecule type: peptide
# Organism: Saccharomyces cerevisiae
# Strain: cyclin B2-Cln2 fusion
# Concentration: concentration not given
# Setting: peptide tiling library
# Reading: direction not given
Sequence,binding enrichment score
TSPGPVLLHPSPSTTQ,0.0316
KPKPVKPVTFSTGIKM,-0.502
ALTMEALEDPSPELME,1.65
VRDLSYRLVFLACCVA,0.00544
AKRSLGFLPQPVPL,-0.033
SDSTVTKLDFDLEP,0.611
PAKRRLELGE,0.572
IVLICAKRSLCAAFSV,-0.221
PQWPCGKHKRVLIFAS,-0.185
ESSQLTVQAEFDMSAI,-0.379
DKYDEGLYRFNSLNDL,0.644
QYQVVDDIVSKLVFDF,0.0222
PARRRLRLSVDEVSSP,0.296
ESSTVSEEDYFSSHRD,0.704
EPRNLLSLFEDTLDPT,1.58
RKLHFEDEVT,-0.187
LRRQLSFSED,2.05
VLVRTSACRSLFGPVD,0.904

# Study 2
# Target: CEP164, C-terminal peptide (human)
# Technique: DHFR complementation, deep sequencing
# Matrix: yeast
# Setting: single substitutions, model-inferred values
# Relative to: wild type
# Reading: higher = weaker binding
# Parent: PDZK1, PDZ domain 2 (human); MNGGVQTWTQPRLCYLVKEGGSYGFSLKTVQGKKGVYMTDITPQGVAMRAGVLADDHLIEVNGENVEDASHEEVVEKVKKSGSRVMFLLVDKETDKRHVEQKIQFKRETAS; partner HNRVKVYRF
Variant,binding free energy change [kcal/mol]
S111G,-0.124
I59F,0.609
V75Q,1.77
P43C,0.344
G3I,0.00307
V85I,0.221
G4N,0.00299
V90F,0.0476
K106F,-0.103
L27R,1.02
G4H,-0.00356
V5L,0.00144
V52F,1.32

# Study 3
# Target: OGT, full length, His-tagged (human)
# Technique: phage display, sequencing
# Matrix: in vitro
# Concentration: 1 µg OGT
# Setting: single substitutions, 15-mer displayed peptide, unchanged parent 19.6
# Relative to: input library
# Reading: higher = stronger binding
# Parent: peptide; TAPFYPPAYQIQVFK
Variant,fold enrichment [fold]
TAPFYPPAYYIQVFK [Q10Y],1.25
TAPFYPPAYRIQVFK [Q10R],1.51
TAPFYPPWYQIQVFK [A8W],3.15
EAPFYPPAYQIQVFK [T1E],14.1
TAPFYPPAYQIQVTK [F14T],19.3
KAPFYPPAYQIQVFK [T1K],14.3
QAPFYPPAYQIQVFK [T1Q],10.4
TAPFYPPAYQIQVFI [K15I],8.07
TAPGYPPAYQIQVFK [F4G],4.52
TAPFYPPAQQIQVFK [Y9Q],0.667
TTPFYPPAYQIQVFK [A2T],21.7
TAPFYPPAYKIQVFK [Q10K],2.06
TAPFYPPAYLIQVFK [Q10L],6.26
TAPFYPPAYQTQVFK [I11T],0.483

# Study 4
# Target: ABI1, truncated, D143A, DHFR fusion (Arabidopsis thaliana)
# Technique: DHFR PCA, deep sequencing
# Matrix: yeast
# Setting: methotrexate growth selection, single substitutions
# With: (+)-ABA 17 µM
# Relative to: wild-type fitted maximum
# Reading: higher = stronger binding
# Parent: PYL1, truncated, DHFR fusion (Arabidopsis thaliana); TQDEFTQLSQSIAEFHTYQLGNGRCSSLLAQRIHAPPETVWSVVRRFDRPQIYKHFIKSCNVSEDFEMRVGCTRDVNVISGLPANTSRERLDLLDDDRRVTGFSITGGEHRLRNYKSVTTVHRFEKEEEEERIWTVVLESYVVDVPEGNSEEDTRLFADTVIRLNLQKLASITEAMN; partner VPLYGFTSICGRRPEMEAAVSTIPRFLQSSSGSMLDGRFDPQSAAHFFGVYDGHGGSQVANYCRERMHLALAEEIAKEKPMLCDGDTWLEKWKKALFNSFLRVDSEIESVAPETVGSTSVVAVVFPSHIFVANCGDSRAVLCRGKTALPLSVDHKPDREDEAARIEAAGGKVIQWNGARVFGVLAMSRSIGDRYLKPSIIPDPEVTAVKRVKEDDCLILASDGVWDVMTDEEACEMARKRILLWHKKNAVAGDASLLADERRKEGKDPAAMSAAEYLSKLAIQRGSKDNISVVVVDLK
Variant,relative binding score [%]
V121D,-6.9
M176H,90.6
P146V,22.8
F47D,-6.02
V62R,11.7
V137K,9.38
T39G,49.1
G108C,18.5
I57V,81.4
Q167D,62.6
L82M,72.4
T1Y,81
A35D,-7.82
Q31M,52.7
L166T,-16.4
R49H,72.7
W41Y,1.69
A30E,70.1
E139Q,83.7
S26F,62.4
T17A,52.5
G148N,63.5
S42I,21.3

# Study 5
# Target: RING finger protein unkempt homolog, zinc fingers 1-6, GST-SBP tag (UNK, Homo sapiens, UniProt Q9C0B0, residues 30-357)
# Technique: RNA Bind-n-Seq
# Molecule type: RNA
# Matrix: in vitro
# Concentration: not given
# Setting: RNA with constant flanks, human-mouse chimeric sites, ends assumed
# Relative to: input RNA pool
# Reading: higher = stronger binding
# Constant ends, left off below: GGGAGUUCUACAGUCCGACGAUC … CAACAGAGGAUUGAGCAUCA
# Target sequence (chain): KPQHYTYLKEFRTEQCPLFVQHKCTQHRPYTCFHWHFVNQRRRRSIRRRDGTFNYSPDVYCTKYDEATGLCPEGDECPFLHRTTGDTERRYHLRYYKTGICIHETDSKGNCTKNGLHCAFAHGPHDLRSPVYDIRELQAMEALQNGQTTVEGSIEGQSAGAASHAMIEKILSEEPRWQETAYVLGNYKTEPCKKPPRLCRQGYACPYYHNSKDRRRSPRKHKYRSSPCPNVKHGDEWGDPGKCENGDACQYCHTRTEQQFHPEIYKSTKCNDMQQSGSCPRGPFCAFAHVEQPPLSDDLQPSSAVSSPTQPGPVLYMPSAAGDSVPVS
Sequence,bound/input enrichment
GUGUCCUGCUUUCAACUUAAAUCACUGAGGCAUCUCUACUGUUCUGUUAAAAUCAGGACUGUAGCGCUGUGUCACCACAUGAGAGUUGUUAAGCAGCCUUUCUGUGGAGGGUGGGAAUGA,0.114 ratio
AUCAAAUACUUUGGGGACAUCAUUAGUGUGGGACAGAGAUUGUUGCAAGGAGCUCGGAUCUUAGGGAUUCCAGUUAUCAUAACGGAACAAUACCCUAAAGGACUUGGCAGCACCGUUCAA,0.205 ratio
AGUACUGACUCAGGCGGAUUUUGCAACCUGAAUGCAACAGCAGCAGCAUCUUAGUCACAGUAGGGUAGUUUUGGGGCUCUGUGGCCAGGGUUUUAUUCACAUGCAGGUUUGGAAAAUGUA,2.48 ratio
AUAGAUGAAAUUGAUGUGGACCAGGAAGGAAUUGCUGAAAUGAUGCUGGAUGAAAAUGCUAUUGCUCAGGUCCCACGCCCUGGCACAUCUUUGAAACUCCCUGGCACUAACCAAACAGGA,0.23 ratio
UGACAAGGGCACUGCAGAGCCAUGCCUUUCUUGGACAUACAGAAAAAGCUGGGCAUCAGCCUGGACCGGCACUUUAUGUUCCUAAGCGCAGAACAGCCCUAUAAGAACGCCGCUCGGUGC,0.0802 ratio
GAGUCGAUUAUGGAAACAACUACAGAAUAUCUUGCAGCCUCAGUGUUCACUUGCUUGGCGAUAGCAUUGGGGUUUUAUAGGUUCUGGAAGGAGAACUGACGAUGAUGCUGCCGCUGCUGC,0.179 ratio
UUCUAGUAUGAUGGUGAUAUUGGCAAUUAUUAUUAUGGCCAGGGUCAUCCCAUGAAGCCUCAUAGAAUCCGGAUGACUCAUAACUUGCUGCUAAAUUAUGGUUUAUACAGAAAAAUGGAA,0.299 ratio
GUGCCCUUCUCGCUGCUGCGGAGCCCGAGCUGGGAACCAUUCCGGGACUGGUACCCUGCACACAGCCGCCUCUUCGACCAGGCCUUCGGGCUGCCCCGGUUGCCCGAUGAGUGGUCGCAG,0.0623 ratio
AGUUCCAAACCACCAUCAGAAAUGAAGAUGAGAUUACCCAGACGAGCCAAAACAGCUGCGCUACAGAAAAGUAAACUUAACCUUGCAGAGUUCCUUAAUGAAGAUACUAAGUUAGGAAGC,0.465 ratio
GGGGAGAAACCUUACGAGUGUGUGCAGUGUGGGAAAUCGUAUAGUCAGAGCUCAAACCUCUUCAGACAUCAGAGACGACACAAUGCAGAAAAACUUCUGAAUGUUGUGAAGGUUUAAGAA,1.1 ratio
ACACAAUAUGAGACCAACAGCAUGGACUUCAAAGUUGGGGCAGAUGGGACAGUCUUCGCCACCCGGGAGCUGCAGGUCCCCUCCGAGCAGGUGGCCUUCACGGUGACUGCGCGGGAAAGC,0.207 ratio

# Other studies, line by line
Substance,target,assay,test system,conditions,scale,endpoint,value
"PhoQ, residues 284 288 289 292 302 303 AMDMFI","PhoP, residues 12 14 15 18 19 NFCKL (Escherichia coli, UniProt P23836)","Sort-seq, refers to: YFP reporter",E. coli,"PhoQ-PhoP variant library, with: 10 µM Mg2+","relative to: high Mg2+ state, higher = stronger signaling",fold induction,0.447

# Repeated from above (study 4):
Variant,relative binding score [%]
A35D,-7.82
E139Q,83.7
R49H,72.7
P146V,22.8
W41Y,1.69
